Measured values pooled from the literature.
Compare with care: the assays were run in different laboratories. Numbers after ± are the reported error.
POLB: DNA polymerase beta (POLB, Homo sapiens, UniProt P06746)

For `O=C1c2sc(-c3ccc(N4CCC(F)C4)nc3F)nc2CCN1c1cccnc1` (centres unmarked), the Kd was 0.038 ± 0.025 µM (TAR DNA-binding protein 43, aggregated (TARDBP, Homo sapiens, UniProt Q13148); radioligand binding; FTLD-TDP type B brain homogenate).
With `Nc1nc2c(ncn2[C@H]2C[C@H](O)[C@@H](COP(=O)(O)OP(=O)(O)C(F)(F)P(=O)(O)O)O2)c(=O)[nH]1` the Kd was 1010 ± 197 µM (POLB; nucleotide binding, substrate, single turnover kinetics; 37 °C, dG misincorporation opposite A).
For `CC[C@H](C)[C@@H]1NC(=O)[C@H](C)NC(=O)[C@H](C)NC(=O)[C@H]([C@@H](C)O)NC(=O)[C@H](Cc2ccccc2)NC(=O)[C@@H]2CSSC[C@@H]3NC(=O)[C@H](C(C)C)NC(=O)[C@H](CCCCN)NC(=O)[C@H](CO)NC(=O)[C@H](CCCCN)NC(=O)[C@@H]4CSSC[C@H](NC(=O)[C@H](CO)NC(=O)[C@H](CCC(=O)O)NC(=O)CNC(=O)[C@H](CSSC[C@H](NC(=O)CNC1=O)C(=O)N[C@@H](CO)C(=O)N4)NC(=O)[C@@H]1CCCN1C(=O)[C@H](Cc1ccccc1)NC(=O)CNC(=O)[C@H](CC(N)=O)NC(=O)[C@H](CCCCN)NC(=O)[C@H](Cc1ccc(O)cc1)NC3=O)C(=O)N[C@@H](C(C)C)C(=O)N[C@@H](Cc1ccc(O)cc1)C(=O)N[C@@H](CC(C)C)C(=O)N1CCC[C@H]1C(=O)N2`, the Kd was 5.8 ± 0.03 µM (POPC/POPE lipid membrane; membrane binding, surface plasmon resonance; POPC/POPE 80:20 vesicles; pH 7.4).
`C[n+]1cn(C2OC(COP(=O)(O)OP(=O)([O-])C(F)(F)P(=O)(O)OP(=O)(O)OCC3OC(n4cnc5c(=O)[nH]c(N)nc54)C(O)C3O)C(O)C2O)c2nc(N)nc(O)c21` (centres unmarked) has a Kd of 0.0174 µM (Eukaryotic translation initiation factor 4E, residues 28-217 (Eif4e, Mus musculus, UniProt P63073); binding, fluorescence quenching titration; pH 7.2, 20 °C).
`CC#Cc1cc2c3c(c1)O[C@H](CO)[C@H](O)[C@@H]3OC2` has a Kd of 440 µM (Galectin-8 (LGALS8, Homo sapiens, UniProt O00214); cell-free assay, FP).
`CC[C@H](C)[C@@H]1NC(=O)[C@H](C)NC(=O)[C@H](C)NC(=O)[C@H]([C@@H](C)O)NC(=O)[C@H](Cc2ccccc2)NC(=O)[C@@H]2CSSC[C@@H]3NC(=O)[C@H](C(C)C)NC(=O)[C@H](CCCCN)NC(=O)[C@H](CO)NC(=O)[C@H](CCCCN)NC(=O)[C@@H]4CSSC[C@H](NC(=O)[C@H](CO)NC(=O)[C@H](CCC(=O)O)NC(=O)CNC(=O)[C@H](CSSC[C@H](NC(=O)CNC1=O)C(=O)N[C@@H](CO)C(=O)N4)NC(=O)[C@@H]1CCCN1C(=O)[C@H](Cc1ccccc1)NC(=O)CNC(=O)[C@H](CC(N)=O)NC(=O)[C@H](CCCCN)NC(=O)[C@H](C)NC3=O)C(=O)N[C@@H](C(C)C)C(=O)N[C@@H](Cc1ccc(O)cc1)C(=O)N[C@@H](CC(C)C)C(=O)N1CCC[C@H]1C(=O)N2` has a Kd of 6.89 ± 0.36 µM (POPC/POPE lipid membrane; membrane binding, surface plasmon resonance; POPC/POPE 80:20 vesicles; pH 7.4).
With `O=C(O[C@@H]1[C@@H](c2c(O)cc(O)c3c2O[C@H](c2cc(O)c(O)c(O)c2)[C@H](OC(=O)c2cc(O)c(O)c(O)c2)C3)c2c(O)cc(O)cc2O[C@@H]1c1cc(O)c(O)c(O)c1)c1cc(O)c(O)c(O)c1` the Kd was 4.62 µM (Neurogenic locus notch homolog protein 1 (Homo sapiens, UniProt P46531); binding, SPR).
For `CSCC[C@H](NC(=O)[C@H](CO)NC(=O)[C@H](CCCNC(=N)N)NC(=O)[C@H](CCCCN)NC(=O)[C@H](CO)NC(=O)[C@H](CCCCN)NC(=O)[C@H](CCCCN)NC(=O)CNC(=O)[C@H](CCCCN)NC(=O)[C@H](CCCCN)NC(=O)[C@H](CC(C)C)NC(=O)[C@H](CCCNC(=N)N)NC(=O)[C@H](CCCNC(=N)N)NC(=O)[C@H](C)N)C(=O)N[C@@H](CC(N)=O)C(=O)N[C@@H](CC(=O)O)C(=O)N1CCC[C@H]1C(=O)N[C@@H](Cc1ccc(O)cc1)C(=O)O`, the Kd was 0.196 ± 0.015 µM (Moesin, FERM domain (Homo sapiens, UniProt P26038); binding, Trp fluorescence titration; pH 7.4, room temperature, FERM domain).
`c1ccc(-c2nn[nH]c2-c2ccccc2)cc1` gave a Kd of 154 ± 23 µM (Troponin C, slow skeletal and cardiac muscles, with cTnI (TNNC1, Human, UniProt P63316, C35S/C84S/T53C); slowing of Ca2+ dissociation, stopped-flow fluorescence; pH 7.0, 15 °C, IAANS-labelled chimera).
For `CC[C@H](C)[C@H](NC(=O)[C@H](CC(C)C)NC(=O)[C@H](CCCNC(=N)N)NC(=O)c1ccc(CN2CCN(C)CC2)cc1)C(=O)N[C@@H](Cc1ccccc1)C(N)=O`, the Kd was 5.28 ± 0.395 µM (Cyclin-A2 (CCNA2, Homo sapiens, UniProt P20248); binding, tryptophan fluorescence titration; co-expressed DnaK-DnaJ-GrpE/GroES-GroEL).
`Cc1n[nH]c(C)c1CCCOc1cc(OCCCCCCNC(=O)OC(C)(C)C)cc(C(=O)O)c1` has a Kd of 1.04 µM (Transthyretin (TTR, Homo sapiens, UniProt P02766); cell-free assay, FP; pH 7.4).
`CNc1ccccc1C(=O)O[C@H]1C[C@H](n2cnc3c(N)ncnc32)O[C@@H]1COP(=O)(O)OP(=O)(O)O` gave a Kd of 7.9 ± 1.87 µM (Unconventional myosin-Va (Gallus gallus, UniProt Q02440, D297C/G292C/I296C/S293C/V295G); stopped-flow FRET; 25 °C, together with: EDTA 4 mM).
With `Nc1nc2c(ncn2[C@H]2C[C@H](O)[C@@H](COP(=O)(O)OP(=O)(O)[C@@H](Cl)P(=O)(O)O)O2)c(=O)[nH]1` the Kd was 540 ± 30 µM (POLB; substrate, quench-flow kinetics; pH 8.0, 37 °C, misincorporation opposite T in gapped DNA).
The Kd of `CC[C@H](C)[C@H](NC(=O)[C@H](Cc1c[nH]c2ccccc12)NC(=O)[C@@H](NC(=O)[C@H](CCC(=O)O)NC(=O)[C@@H]1CCCN1C(=O)[C@H](CCCNC(=N)N)NC(C)=O)[C@@H](C)CC)C(=O)N[C@@H](C)C(=O)N[C@@H](CCC(N)=O)C(=O)N[C@@H](CCC(=O)O)C(=O)N[C@@H](CC(C)C)C(=O)N[C@@H](CCCNC(=N)N)C(=O)N[C@@H](CCCNC(=N)N)C(=O)N[C@@H](C)C(=O)NCC(=O)N[C@@H](CCCCN)C(=O)N[C@H](C(=O)N[C@@H](CC(C)C)C(=O)N[C@@H](CC(N)=O)C(=O)N[C@@H](C)C(=O)N[C@@H](Cc1ccc(O)cc1)C(=O)N[C@@H](Cc1ccc(O)cc1)C(=O)N[C@@H](C)C(=O)N[C@@H](CCCNC(=N)N)C(N)=O)C(C)C` is reported as ~0.047 µM (Bcl-2-related protein A1 (Homo sapiens, UniProt Q16548); binding, FP; pH 7.8).
`C=CC(=O)Nc1cc(Nc2nccc(-n3ccc4nc(OC)ccc43)n2)c(OC)cc1N(C)CCN(C)C` gave a Kd of 0.656 µM (KDR (Homo sapiens, UniProt P35968); cell-free assay, competition with immobilised ligand).
The Kd of `COc1ccc(C(=O)NO)cc1NC(=O)c1ccc(-c2ccccc2)cc1` is reported as 0.631 µM (HDAC10 (Homo sapiens, UniProt Q969S8); chemoproteomic pulldown; SW-620/MV4-11 lysate; 1 h, 30 °C).
`Cc1cn([C@H]2C[C@H](O)[C@@H](COP(=O)(O)OP(=O)(O)C(Cl)(Cl)P(=O)(O)O)O2)c(=O)[nH]c1=O` gave a Kd of 44.7 ± 20.2 µM (POLB; dNTP binding, substrate, single-turnover kinetics; single-nucleotide gapped DNA; 37 °C, wild type, correct incorporation, together with: dTTP opposite template A).
With `CC[C@H](C)[C@H](NC(=O)[C@H](Cc1ccc(O)c(I)c1)NC(=O)[C@@H](NC(=O)[C@H](CCCNC(=N)N)NC(=O)CNC)C(C)C)C(=O)N[C@@H](Cc1c[nH]cn1)C(=O)N1CCC[C@H]1C(=O)N[C@H](C)C(=O)O` the Kd was 0.00517 µM (angiotensin II receptor type 1, rat; binding, saturation radioligand binding; female rat, liver membranes).
`Nc1nc2c(ncn2C2CC(O)C(COP(=O)(O)OP(=O)(O)C(Br)P(=O)(O)O)O2)c(=O)[nH]1` (mixture of isomers) has a Kd of 454 ± 179 µM (DNA polymerase beta (POLB, Homo sapiens, UniProt P06746, I260M); nucleotide binding, substrate, single turnover kinetics; 37 °C, dG misincorporation opposite A).
With `CC(=O)N[C@@H]1[C@@H](O[C@@H]2O[C@H](C(=O)O)[C@@H](O[C@@H]3O[C@H](CO)[C@@H](O)[C@H](O[C@@H]4O[C@H](C(=O)O)[C@@H](OS(=O)(=O)O)[C@H](OS(=O)(=O)O)[C@H]4OS(=O)(=O)O)[C@H]3NC(C)=O)[C@H](OS(=O)(=O)O)[C@H]2OS(=O)(=O)O)[C@H](O)[C@@H](CO)O[C@H]1N=[N+]=[N-]` the Kd was 29.4 µM (Interleukin-8 (CXCL8, Homo sapiens, UniProt P10145); ligand displacement, FP).

Repeated from above:
`Cc1cn([C@H]2C[C@H](O)[C@@H](COP(=O)(O)OP(=O)(O)C(Cl)(Cl)P(=O)(O)O)O2)c(=O)[nH]c1=O` gave a Kd of 44.7 ± 20.2 µM (POLB; dNTP binding, substrate, single-turnover kinetics; single-nucleotide gapped DNA; 37 °C, wild type, correct incorporation, together with: dTTP opposite template A).
`c1ccc(-c2nn[nH]c2-c2ccccc2)cc1` gave a Kd of 154 ± 23 µM (Troponin C, slow skeletal and cardiac muscles, with cTnI (TNNC1, Human, UniProt P63316, C35S/C84S/T53C); slowing of Ca2+ dissociation, stopped-flow fluorescence; pH 7.0, 15 °C, IAANS-labelled chimera).
With `O=C(O[C@@H]1[C@@H](c2c(O)cc(O)c3c2O[C@H](c2cc(O)c(O)c(O)c2)[C@H](OC(=O)c2cc(O)c(O)c(O)c2)C3)c2c(O)cc(O)cc2O[C@@H]1c1cc(O)c(O)c(O)c1)c1cc(O)c(O)c(O)c1` the Kd was 4.62 µM (Neurogenic locus notch homolog protein 1 (Homo sapiens, UniProt P46531); binding, SPR).
